Measurements of several laboratories.
Lines come from different studies, so protocols differ. Numbers after ± are the reported error.

With Cc1cc(C)c(N2CCN(c3c(C)cc(C)cc3C)C2=[Se])c(C)c1.[Cl][Au] the IC50 was 0.7 ± 0.1 µM (A2780 ADR; MTT; 72 h).
With COc1cccc2c1C(=O)c1c(O)c3c(c(O)c1C2=O)C[C@@](O)(C(=O)CO)C[C@@H]3O[C@H]1C[C@H](NC(=O)CCN2C(=O)CC(SC[C@H](N)C(=O)N3CCC[C@H]3C(=O)N[C@@H](CCCCN)C(=O)N[C@@H](CCCCN)C(=O)N[C@@H](CCCCN)C(=O)N[C@@H](CCCNC(=N)N)C(=O)N[C@@H](CCCCN)C(=O)N[C@H](C(N)=O)C(C)C)C2=O)[C@H](O)[C@H](C)O1 (stereo partly drawn) the IC50 was 4.85 ± 0.83 µM (MCF7/ADR doxorubicin-resistant; CCK-8; 96 h, doxorubicin-equivalent dose).
For CC[C@H](C)[C@H](NC(=O)CNC(=O)[C@H](C)NC(=O)[C@@H]1CCCN1C(=O)CNC(=O)[C@H](C)NC(=O)[C@H](CCC(=O)O)NC(=O)[C@@H]1CCCN1C(=O)[C@H](CC(=O)O)NC(=O)[C@H](C)NC(=O)[C@H](CCC(=O)O)NC(=O)[C@H](C)NC(=O)[C@H](CC(=O)O)NC(=O)[C@H](C)NC(=O)[C@H](CCC(=O)O)NC(=O)[C@H](C)NC(=O)[C@H](CCC(=O)O)NC(=O)[C@@H]1CCCN1C(=O)[C@@H](N)CCC(=O)O)C(=O)NCC(=O)N[C@@H](C)C(=O)N[C@H](C(=O)N[C@@H](CC(C)C)C(=O)N[C@@H](CCCCN)C(=O)N[C@H](C(=O)N[C@@H](CC(C)C)C(=O)N[C@H](C(=O)N[C@H](C(=O)NCC(=O)N[C@@H](CC(C)C)C(=O)N1CCC[C@H]1C(=O)N[C@@H](C)C(=O)N[C@@H](CC(C)C)C(=O)N[C@H](C(=O)N[C@@H](CO)C(=O)N[C@@H](Cc1c[nH]c2ccccc12)C(=O)N[C@H](C(=O)N[C@@H](CCCCN)C(=O)N[C@@H](CCCNC(=N)N)C(=O)N[C@@H](CCCCN)C(=O)N[C@@H](CCCNC(=N)N)C(=O)N[C@@H](CCC(N)=O)C(=O)N[C@@H](CCC(N)=O)C(N)=O)[C@@H](C)CC)[C@@H](C)CC)[C@@H](C)O)[C@@H](C)O)C(C)C)C(C)C, the IC50 was 33.1 ± 2.3 µM (MCF7 vector control (FAP-negative); cell viability, MTT; 72 h).
For F[P-](F)(F)(F)(F)F.OCP(CO)CO.OCP(CO)CO.OCP(CO)CO.OCP(CO)CO.[Cu+], the IC50 was 0.37 µM (DLD-1; cell growth or viability, MTT; 72 h).
With O=C1[O][Pt]2([OH])([OH])([NH]C3CCCCC3[NH]2)[O]C1=O (stereo not drawn) the IC50 was > 100 µM (CAKI-1; cell growth or viability, resazurin; 72 h).
For CC[C@H](C)[C@@H]1NC(=O)[C@@H]2CCCN2C(=O)[C@@H]2CCCN2C(=O)[C@H]([C@@H](C)CC)NC(=O)[C@H](CO)NC(=O)[C@H](CCCCN)NC(=O)[C@H]([C@@H](C)O)NC(=O)[C@@H]2CSSC[C@H](NC1=O)C(=O)N[C@@H](Cc1ccccc1)C(=O)N1CCC[C@H]1C(=O)N[C@@H](CC(=O)O)C(=O)NCC(=O)N[C@@H](CCCNC(=N)N)C(=O)N2, the IC50 was > 100 µM (Calu-3; cell growth or viability, ATP luminescence; 72 h).
CC1=CC(C)=[N+]2C1=Cc1ccc(CCC(=O)NCC3C[NH][Pt]([Cl])([Cl])[NH]3)n1[B-]2(F)F (stereo not drawn) gave an IC50 of 141 ± 6.6 µM (KB-3-1 spheroids in 3D Matrigel; cytotoxicity, CellTiter-Glo; 4 days, pre-grown 4 days).
For Cc1cc(C)c(-n2ccn(-c3c(C)cc(C)cc3C)c2=[Se])c(C)c1.[Cl][Au], the IC50 was 7.6 ± 0.8 µM (H157 spheroids; acid phosphatase; 72 h, 3D spheroid).
C=C(C(=O)O)[C@@H]1CC[C@@]2(C)CCC(=O)C(C)=C2C1 has an IC50 of > 10 µM (human Neutrophil; elastase release, inhibitor).
[CH3][Ti+2][O]C(=O)c1ccc([S][Au][PH](c2ccccc2)(c2ccccc2)c2ccccc2)cc1.c1cc[cH-]c1.c1cc[cH-]c1 has an IC50 of 0.12 µM (CAKI-1; cell growth or viability, XTT; 72 h).
Cc1nn(-c2ccccc2)c(O)c1C(c1ccc(F)cc1)c1c(C)nn(-c2ccccc2)c1O gave an IC50 of 5.45 to 18.3 µM (various human cancer cell lines; cell growth, MTT).
C1N2CN3CN1CP(C2)C3.CC(C)OC(=O)C(n1cccn1)n1cccn1.F[P-](F)(F)(F)(F)F.[Cu+] gave an IC50 of 30.1 µM (PSN1; cell growth or viability, MTT; 72 h).
The IC50 of CC(C)(C)C(=O)OCOP(=O)(OCOC(=O)C(C)(C)C)C1CCCN(O)C1=O (stereo not drawn) is reported as 1 µM (RCC4 VHL re-expressing; cell growth, crystal violet).
With CC1=C2[C@@H](O)[C@H](C(=O)O)CC[C@@]2(C)CCC1=O the IC50 was > 10 µM (human Neutrophil; superoxide release, inhibitor, absorbance).
C#CCN[C@@H]1C=C[C@]2(O[C@H]([C@@H](CC)C(=O)[C@@H](C)[C@@H](O)[C@H](C)[C@@H]3O[C@@H]([C@@H](CC)C(=O)O)CC[C@@H]3C)[C@@H](C)C[C@H]2C)O[C@@]12CC[C@@](C)([C@H]1CC[C@](O)(CC)[C@H](C)O1)O2 gave an IC50 of 0.17 ± 0.02 µM (HMLER CD24low/CD44high; CellTiter-Blue; 72 h).
The IC50 of C[C@@H](N)[C@H](O)CCCCCCCC(=O)CCCCCCCCCCCCCC[C@@H](O[C@@H]1O[C@H](CO)[C@H](O)[C@H](O)[C@H]1O)[C@H](N)CO is reported as 5.77 µM (HCC70; cell growth or viability, resazurin; 96 h).
The IC50 of C[C@H]1C(OCCCC[P+](c2ccccc2)(c2ccccc2)c2ccccc2)O[C@@H]2O[C@@]3(C)CCC4[C@H](C)CCC1[C@]42OO3 (stereo partly drawn) is reported as 0.243 µM (OVCAR-3; cell growth or viability, MTT; 72 h).
The IC50 of CCC(C)C1OC(=O)C(NC(=O)c2cccc(NC=O)c2O)C(C)OC(=O)C(C(C)CC)OC(=O)C(C)(C)C(=O)C(Cc2ccccc2)OC1=O (stereo not drawn) is reported as 0.0005 µM (PC-9/GR gefitinib-resistant; cell viability, CCK-8; 72 h).
COC(=O)CC[C@@H](NC(=O)[C@@H](Cc1ccc(OP(=O)(O)O)cc1)NC(=O)[C@@H](Cc1ccccc1)NC(=O)[C@@H](Cc1ccccc1)NC(=O)Cc1ccc2ccccc2c1)C(=O)OC gave an IC50 of > 200 µM (OVCAR-5; cell growth or viability).
For CCC(=O)C(NC(=O)c1ccccc1-c1ccc(C(F)(F)F)cc1)c1cccc(C(F)(F)F)c1 (stereo not drawn), the IC50 was > 20 µM (KHYG-1 and MICA-expressing Ba/F3; NKG2D-mediated cell killing; 6 h).
The IC50 of COc1ccc(C(c2c(C)nn(-c3ccccc3)c2O)c2c(C)nn(-c3ccccc3)c2O)cc1OC is reported as > 40 µM (Ishikawa; cell growth or viability, MTT; 48 h).
CC[C@H](C)[C@H](NC(=O)CNC(=O)[C@H](C)NC(=O)[C@H](CCC(=O)O)NC(=O)[C@@H]1CCCN1C(=O)CNC(=O)[C@H](C)NC(=O)[C@H](CCC(=O)O)NC(=O)[C@H](C)NC(=O)[C@H](CC(=O)O)NC(=O)[C@H](C)NC(=O)[C@H](CCC(=O)O)NC(=O)[C@H](C)NC(=O)[C@H](CCC(=O)O)NC(=O)[C@@H]1CCCN1C(=O)[C@@H](N)CCC(=O)O)C(=O)NCC(=O)N[C@@H](C)C(=O)N[C@H](C(=O)N[C@@H](CC(C)C)C(=O)N[C@@H](CCCCN)C(=O)N[C@H](C(=O)N[C@@H](CC(C)C)C(=O)N[C@H](C(=O)N[C@H](C(=O)NCC(=O)N[C@@H](CC(C)C)C(=O)N1CCC[C@H]1C(=O)N[C@@H](C)C(=O)N[C@@H](CC(C)C)C(=O)N[C@H](C(=O)N[C@@H](CO)C(=O)N[C@@H](Cc1c[nH]c2ccccc12)C(=O)N[C@H](C(=O)N[C@@H](CCCCN)C(=O)N[C@@H](CCCNC(=N)N)C(=O)N[C@@H](CCCCN)C(=O)N[C@@H](CCCNC(=N)N)C(=O)N[C@@H](CCC(N)=O)C(=O)N[C@@H](CCC(N)=O)C(N)=O)[C@@H](C)CC)[C@@H](C)CC)[C@@H](C)O)[C@@H](C)O)C(C)C)C(C)C has an IC50 of 26.8 ± 1.1 µM (MCF7 FAP-transfected; cell viability, MTT; 72 h).
The IC50 of COc1ccc2sc3c(c2c1)SCCNC3=O is reported as 13.4 µM (CFPAC-1; cell growth or viability, MTT).
For O=C(Cc1ccc2ccccc2c1)N[C@H](Cc1ccc(O)cc1)C(=O)N[C@H](Cc1ccccc1)C(=O)N[C@H](Cc1ccccc1)C(=O)N[C@H](Cc1ccc(O)cc1)C(=O)O, the IC50 was > 500 µg/mL (SAOS-2; cell growth or viability, MTT).
CNC(=O)c1cc(Oc2ccc(NC(=O)c3cc(-c4cccc(OC(=O)CCC(=O)OC5OC6OC7(C)CCC8C(C)CCC(C5C)C68OO7)c4)ccn3)cc2)ccn1 (stereo not drawn) has an IC50 of 7.97 µM (Huh-7; cell growth or viability, MTT; 72 h).
For CC[C@@H](C)[C@@H](NC(=O)[C@@H](CCCCN)NC(=O)[C@H](NC(=O)[C@@H](CCC(N)=O)NC(=O)[C@@H](CCCNC(=N)N)NC(=O)[C@@H](CC(C)C)NC(=O)CNC(=O)[C@@H](Cc1ccccc1)NC(=O)CNC(=O)[C@@H](Cc1ccc(O)cc1)NC(=O)CNC(=O)[C@@H](CCCCN)NC(=O)[C@H](NC(=O)[C@@H](Cc1ccccc1)NC(=O)[C@H](NC(=O)[C@@H](CC(=O)O)NC(=O)[C@H](N)CCCNC(=N)N)C(C)C)[C@H](C)O)[C@H](C)CC)C(=O)N[C@H](Cc1c[nH]c2ccccc12)C(=O)N[C@H](Cc1ccccc1)C(=O)N[C@H](CCC(N)=O)C(=O)N[C@H](CC(N)=O)C(=O)N[C@H](CCCNC(=N)N)C(=O)N[C@H](CCCNC(=N)N)C(=O)N[C@H](CCSC)C(=O)N[C@H](CCCCN)C(=O)N[C@H](Cc1c[nH]c2ccccc12)C(=O)N[C@H](CCCCN)C(=O)N[C@H](CCCCN)C(=O)O, the IC50 was 1.3 µM (CLL patient PBMCs; cell death, PI staining flow cytometry; 90 min, room temperature, serum-free medium).
For CNC(=O)c1cc(Oc2ccc(NC(=O)CCC(=O)OC3OC4OC5(C)CCC6C(C)CCC(C3C)C46OO5)cc2)ccn1 (stereo not drawn), the IC50 was 24.6 µM (Hep3B; cell growth or viability, MTT; 72 h).
[Cl][Au].[Se]=c1n(C2CCCCC2)ccn1C1CCCCC1 gave an IC50 of 0.2 ± 0.02 µM (A2780 ADR; MTT; 72 h).
For CNC(=O)c1cc(Oc2ccc(NC(=O)c3cc(-c4ccc(OC(=O)CCC(=O)OC5OC6OC7(C)CCC8C(C)CCC(C5C)C68OO7)cc4)ccn3)cc2)ccn1 (stereo not drawn), the IC50 was 6.19 µM (Hep3B; cell growth or viability, MTT; 72 h).
N.N.O=C([O][Pt]([Cl])([Cl])[O]C(=O)c1ccc(P(c2ccccc2)c2ccccc2)cc1)c1ccc(P(c2ccccc2)c2ccccc2)cc1.[Cl][Au].[Cl][Au] has an IC50 of 3.21 µM (CAKI-1; cell growth or viability, resazurin; 72 h).
